Assay results of several laboratories.
Every numbered part comes from another study and shows a few of its results, in no order. Positions count from the first letter of the parent shown.

Set 1 — technique: RNA Bind-n-Seq; molecule type: RNA; medium: in vitro; tested at: 365 nM; relative to: no-protein control; reading: higher = stronger binding; endpoint: RBNS enrichment (R)
Target: RNA binding protein fox-1 homolog 2, RRM domain, GST-SBP tag (RBFOX2, Homo sapiens, UniProt O43251-10, residues 100-194)
Notes: natural RNA segment, single round, ends assumed
Constant ends, left off below: GGGAGUUCUACAGUCCGACGAUC … UGGAAUUCUCGGGUGCCAA
Residues (chain): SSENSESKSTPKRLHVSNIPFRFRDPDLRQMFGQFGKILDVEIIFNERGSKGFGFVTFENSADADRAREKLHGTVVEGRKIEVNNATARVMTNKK
UGUGCCAAGCCUUGUCCACUGGAAUGCAUCCAGAACAGCAGCACCAUCUAGCGGCAGGUUGAGGAAAACUAUGGUCUCUGCUAGGGAAAACCUUAUCCAACUCUUCAAGU: 0.323
CUCUUCUGGUGUGUCUGAAGACAACAGUAGUGUACUCACGUAUAUGAAAUAAAUAAAUCUUAAAAAAAAAAAUAAGGUGUUAACAUGAGAAGAGGCGCUUCAAGCUCUUC: 0.464
UAAAAUGCUCCCUGUGAGUUUGCAAGCUCUGAAAACAACACCGCUGUGUGCUCAUUCUUAGAGUGAAGACCCUGAAAGGUAUCCCUUUGCAGCCUGUCUCCUGUUUUGAG: 0.305
CGUGUGCGUGCGUGUUAGUGUGUGUGCAUGUGUGUGUCUGUCUUUGUGGGAGGGUAAGACAAUAUGAACAAACUAUGAUCACAGUGACUUUACAGGAGGUUGUGGAUGCU: 1.58
UUUUUUUUUUGUUUGACCAAAGUCAGUGCUGCACAUGACGCAGUGGGUUUUAGGUGUCUCUCUUUGUGUUUUCUGUGGUUUGUGAUGCACGUGCGCAGGAAGGGCUCCUC: 5.66
UCAGCAGCAUGCACUGUUGAGCUUUUCUGACGCUGUGUCAGAAUGGCACUAGUUCAGUUUAUAUCCCUCUCAUAAUAUGGCAGUUCAUUAAAAUACAAAGCAGUAAAAUG: 1.67
ACACUUGUUCACUAAGUGUAAGACCCUGGUAUCCUUUCCUAGAACUGUCAAAAAUAAAUGGAUGGAUAAAUGGAGUGUGUGGAAGUUCAUGUUUUUUCCCAUCAUCAAGG: 0.489
AGCCUCUGAGACUAUCGCUCUUAACCAUGGAAAAGCUCAAAAUAUUCUUGCCAUUACUCAGUGUUCCUAUAAAGAAAAUAUUAUGAUAUCUUGGAAAGGUUCUAUUCCUG: 0.377
ACUUCUUAUUUCUCGUCCUGUCUCUUUGCAAAGUAUGGGCUUUUUUGUUUUUGUUUUUUAAGGGAAACGAAAUGGAAUUCGAAGGGACCUUUUCACUAACCCCACUUCUG: 0.43
GAAAUCCUCAGCCUGGAAACUGGGCCAGAUUGUUCCUUGCUUCAAAUAUCUUUUCCUAAAGAAGAUAAACCUAAGACUCAUUCCAGGUAGCUCAGUGCCAACUAAAACAA: 0.299
GGUUCUGCUGCCUCUACACAGGGGCCCUGUACAGUGAAUGGUGCCAUUUUCGAAGGAGCAGUGUGACCUCCUGUGACCCGUGAAUGUGCCUCCAAGCGGCCCUGUGUGUU: 0.551
UUUCUACUUCCCAUGAAGUAUAUAGGCUUACACUCAUCACCUCGUAAACAAGAACGGGCACAUUUCAGGUGGCUUAUUUUGUGGGGGAGGGUGCUGGAAGGGGUUGGUGG: 0.318

Set 2 — technique: protein-binding microarray; molecule type: double-stranded DNA, one strand shown; medium: in vitro; tested at: 2200 nM top; notes: 60-bp whole probe; added: salmon DNA 0.4 mg/ml; relative to: random background probes; reading: higher = stronger binding; endpoint: fitted relative affinity; constant ends, left off below: GCCTAGCAC … GTCTTGATTCGCTTGACGCTGCTG
Target: Interferon regulatory factor 7, full length, phosphomimetic (IRF7, Homo sapiens, UniProt Q92985, residues 1-503, S471D/S472D/S475D/S476D/S477D/S483D/S484D/S487D)
Target sequence (chain): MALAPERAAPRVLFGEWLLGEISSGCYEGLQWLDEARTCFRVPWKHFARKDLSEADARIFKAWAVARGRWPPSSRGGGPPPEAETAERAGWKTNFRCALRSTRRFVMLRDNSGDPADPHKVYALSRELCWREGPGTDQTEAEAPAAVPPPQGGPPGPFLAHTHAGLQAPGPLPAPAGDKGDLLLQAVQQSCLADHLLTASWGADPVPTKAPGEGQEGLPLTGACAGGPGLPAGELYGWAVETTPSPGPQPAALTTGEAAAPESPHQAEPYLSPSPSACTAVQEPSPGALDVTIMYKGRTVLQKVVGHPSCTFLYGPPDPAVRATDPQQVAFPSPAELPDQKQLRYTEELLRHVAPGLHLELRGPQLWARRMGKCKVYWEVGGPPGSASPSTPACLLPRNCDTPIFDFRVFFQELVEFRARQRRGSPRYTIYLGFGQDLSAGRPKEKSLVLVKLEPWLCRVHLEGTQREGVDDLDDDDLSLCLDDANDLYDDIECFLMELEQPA
TCAATTATATATTTATGACTGTGCTAG: 0.211 z-score
TTAGGTCTCGGTTTGGGTTAGTGCTAG: 2.39 z-score
GACTCTTCAGCACTCGGGTCGTGCTAG: 0.902 z-score
GACGATATGGGGTATCGAGACGTGCTA: 0.426 z-score
TTAGATTTCGGGACTGGATTAGTGCTA: 0.941 z-score
GACGGACTGGGGTATCGGGATGTGCTA: -0.72 z-score
GACGATTTCGGGTTTCGAGGCGTGCTA: 4.94 z-score
TCAAGTTTTACTTTCTAACTGTGCTAG: 2.63 z-score
GACGGTATAGGACTGGGGACGTGCTAG: -0.352 z-score
GACGATTTCAGTATCGAGGCGTGCTAG: 0.852 z-score
ACCATTTTGTTTTTCATTATGTGCTAG: 2.74 z-score
GTTCAAAGTCCTACGGCTTCGTGCTAG: 0.157 z-score
GACGGTAGCGGTTTCGGGACGTGCTAG: 2.11 z-score
TTGGGTATCGACACTGGGTTAGTGCTA: 0.278 z-score
TCAGGACTGGGGTATCGGTTAGTGCTA: -0.557 z-score
TTAGGATTCGGGTTTCGGTTAGTGCTA: 4.96 z-score
TTAGGTATCGGGACAGGGTTAGTGCTA: 0.0361 z-score
ATAGATTTCGGGTATCGATTAGTGCTA: 2.96 z-score
GTACATCTCTCTTAAATAGGGTGCTAG: 0.808 z-score
GACGCTCTCCTTATCCTGACGTGCTAG: 1.86 z-score
TTTGGTTCCGGTTTCGGTTAGTGCTAG: 8.91 z-score
GACGGTTTCGGGACTAGGGACGTGCTA: 3.49 z-score
GACGGTTTCGAGTATCGGGACGTGCTA: 3.61 z-score
GAGTTTCTATTTTCTGAATGGTGCTAG: 6.23 z-score
GACGGTGTCGGTATCGGGACGTGCTAG: -0.633 z-score

Set 3 — technique: protein binding microarray; molecule type: double-stranded DNA, one strand shown; medium: in vitro; tested at: not given; relative to: not given; reading: higher = stronger binding; endpoint: E-score
Target: Histone acetyltransferase KAT6A, winged helix 2, GST fusion (KAT6A, Homo sapiens, UniProt Q92794, residues 85-181)
Notes: 8-mer, flanks averaged, mean of 2 arrays, mostly near background
Construct (chain): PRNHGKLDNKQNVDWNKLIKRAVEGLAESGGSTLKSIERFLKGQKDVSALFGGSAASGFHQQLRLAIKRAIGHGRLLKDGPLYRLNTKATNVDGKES
CCATCTCC: 0.0718
TGTTTCAA: 0.127
CTGAAAAC: 0.0207
CTGTGAGA: -0.165
AGACTCAT: -0.332
AGGGGGCA: 0.136
AGATAGGG: -0.155
TCAAAAAA: 0.149
TTAGCTAA: 0.00547
ACGACAGC: -0.133
GCGCACCC: 0.322
AGTAATTA: -0.051
GAGCTTCA: -0.0222
CGGGGTTA: -0.122
CGCGTAAC: -0.0996
AAATTAGT: 0.089
CGAAGCTC: 0.116
ACAAATGC: 0.036

Set 4 — technique: universal PBM; molecule type: double-stranded DNA, one strand shown; medium: in vitro; tested at: 600 nM; reading: higher = stronger binding; endpoint: E-score
Target: Sal-like protein 4, full length isoform A (SALL4, Homo sapiens, UniProt Q9UJQ4, residues 1-1053)
UniProt Q9UJQ4, sequence (whole entry, looked up): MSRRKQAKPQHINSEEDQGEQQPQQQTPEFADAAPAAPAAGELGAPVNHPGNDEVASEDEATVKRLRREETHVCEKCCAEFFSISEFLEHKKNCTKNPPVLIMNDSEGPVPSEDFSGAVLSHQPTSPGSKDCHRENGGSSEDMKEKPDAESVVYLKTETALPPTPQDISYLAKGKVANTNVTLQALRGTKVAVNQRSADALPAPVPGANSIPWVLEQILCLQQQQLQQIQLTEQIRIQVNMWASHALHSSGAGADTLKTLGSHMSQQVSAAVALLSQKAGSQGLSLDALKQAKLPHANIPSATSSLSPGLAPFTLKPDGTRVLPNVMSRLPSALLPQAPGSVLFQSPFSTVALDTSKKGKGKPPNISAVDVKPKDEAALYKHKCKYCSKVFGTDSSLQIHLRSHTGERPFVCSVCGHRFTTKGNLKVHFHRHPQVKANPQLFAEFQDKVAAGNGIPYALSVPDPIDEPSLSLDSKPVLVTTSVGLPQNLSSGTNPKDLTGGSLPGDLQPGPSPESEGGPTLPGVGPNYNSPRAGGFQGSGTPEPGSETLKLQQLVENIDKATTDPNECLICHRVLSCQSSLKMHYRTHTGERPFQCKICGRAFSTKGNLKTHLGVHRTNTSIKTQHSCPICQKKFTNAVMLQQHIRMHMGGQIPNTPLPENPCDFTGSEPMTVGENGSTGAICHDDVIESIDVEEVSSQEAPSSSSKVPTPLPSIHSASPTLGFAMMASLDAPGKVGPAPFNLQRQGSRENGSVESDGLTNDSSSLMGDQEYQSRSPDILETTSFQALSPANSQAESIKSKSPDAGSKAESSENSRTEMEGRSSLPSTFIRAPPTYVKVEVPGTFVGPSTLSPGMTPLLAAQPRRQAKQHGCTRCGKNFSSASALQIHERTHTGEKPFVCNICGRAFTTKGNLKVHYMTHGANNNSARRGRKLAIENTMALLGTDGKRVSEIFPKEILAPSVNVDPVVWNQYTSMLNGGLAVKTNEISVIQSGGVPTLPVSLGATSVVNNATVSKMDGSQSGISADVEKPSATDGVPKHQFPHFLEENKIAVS
Notes: 8-mer, flanks averaged, mean of replicates
TGCGTAAA: 0.11
AGACTGAT: 0.0618
GAGCCTAC: -0.184
CCGCGACA: -0.265
CCACTCTC: -0.199
AGCCCAAC: -0.18
TCCATAGA: 0.0538
CGCGCTAA: -0.0717
ACTAGCCA: -0.0926
AATTCCAA: 0.229
CTCCCACA: -0.122
GACTACTA: 0.127
CATCCACC: -0.0883
CCAAGTCC: -0.211
GTGCGTGA: -0.119
AATTTCGA: 0.157
ATTGGACG: 0.063
CACAGGTC: -0.193
AAAAGTCC: -0.0834

Set 5 — target: CCND3, cyclin fold, Cln2 fusion (human); technique: yeast growth competition, sequencing; medium: yeast; notes: weak parent motif; relative to: not given; reading: higher = stronger binding; endpoint: normalised enrichment score
Starting sequence: RBL2 docking peptide (human); STTRRRLFVENDS; partner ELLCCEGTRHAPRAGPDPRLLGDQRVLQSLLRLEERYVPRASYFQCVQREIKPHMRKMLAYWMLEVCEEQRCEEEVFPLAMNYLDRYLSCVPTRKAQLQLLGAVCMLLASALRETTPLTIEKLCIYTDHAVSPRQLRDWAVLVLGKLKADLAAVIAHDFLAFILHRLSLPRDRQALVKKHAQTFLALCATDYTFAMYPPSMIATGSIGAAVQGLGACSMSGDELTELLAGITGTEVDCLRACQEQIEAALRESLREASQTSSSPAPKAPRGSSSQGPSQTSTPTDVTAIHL
T2F: 0.0445
D12I: 0.103
R6M: 0.101
T2H: 0.0733
V9N: 0.283
V9H: 0.211
D12N: 0.101
R6T: 0.109
L7I: 0.266
N11D: 0.12
T3G: 0.227
V9A: 0.128
V9K: 0.133
E10Y: 0.022
T3P: 0.0358
D12R: 0.193
R6D: 0.139
E10D: 0.206
F8G: 0.0895
R6Q: 0.18
T3D: 0.159
S1I: 0.0986
F8W: 0.104
V9E: 0.0532
N11P: 0.12

Repeated from above (set 4):
TGCGTAAA: 0.11
ACTAGCCA: -0.0926
CCAAGTCC: -0.211
CTCCCACA: -0.122
AGACTGAT: 0.0618
CATCCACC: -0.0883
